Experimental data of several laboratories.
Each numbered part is a random draw from the data of one study; scales do not carry over between parts.

Study 1 — technique: protein binding microarray; molecule type: double-stranded DNA, one strand shown; matrix: in vitro; tested at: not given; relative to: not given; reading: higher = stronger binding; measurement: E-score
Target: Histone acetyltransferase KAT6A, winged helix 1, GST fusion (KAT6A, Homo sapiens, UniProt Q92794, residues 1-85)
Setting: 8-mer, flanks averaged, mean of 2 arrays, mostly near background
Residues (chain): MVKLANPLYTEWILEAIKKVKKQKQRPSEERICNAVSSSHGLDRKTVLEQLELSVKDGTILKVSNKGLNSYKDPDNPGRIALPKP
GAATTCCA: -0.127
CGAGCCCG: 0.332
ATACTGGG: -0.14
GCGATAAC: 0.0677
CGAGTCGC: 0.0877
CTACATGC: -0.0289
CATCATTC: -0.101
CGGGTGTA: 0.175
AACGCTTC: -0.00971
ATGTATAA: -0.145
CTTCTTAA: -0.141
ATGAGTTG: -0.218
CTTCTAAA: -0.238
ACGCGGAA: 0.262
CAATCACC: -0.0801
CACCGATG: -0.0895
CATAATCA: -0.224
ATGCCGCG: 0.428
AAATTTAC: -0.162
AAACTTCT: -0.0989
AGCGAATG: -0.0224
ATAGGGAA: -0.199
GATTACAA: -0.101
GAGAGCGA: 0.0227
CATCCTCA: -0.0261

Study 2 — technique: RNA Bind-n-Seq; molecule type: RNA; matrix: in vitro; tested at: not given; setting: RNA with constant flanks, ends assumed; relative to: input RNA pool; reading: higher = stronger binding; measurement: bound/input enrichment
Target: RING finger protein unkempt homolog, zinc fingers 1-6, GST-SBP tag (UNK, Homo sapiens, UniProt Q9C0B0, residues 30-357)
Sequence of UniProt Q9C0B0 (30-357, looked up): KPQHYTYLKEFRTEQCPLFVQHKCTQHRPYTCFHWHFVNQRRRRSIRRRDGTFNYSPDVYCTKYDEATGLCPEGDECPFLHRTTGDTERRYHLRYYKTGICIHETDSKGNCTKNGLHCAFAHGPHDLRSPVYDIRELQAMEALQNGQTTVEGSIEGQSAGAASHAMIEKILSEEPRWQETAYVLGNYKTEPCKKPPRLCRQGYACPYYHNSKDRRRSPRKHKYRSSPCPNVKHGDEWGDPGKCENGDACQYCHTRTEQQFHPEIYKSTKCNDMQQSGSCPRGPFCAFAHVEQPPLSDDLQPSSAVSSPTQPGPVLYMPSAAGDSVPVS
Shared flanks, not repeated: GGGAGUUCUACAGUCCGACGAUC … CAACAGAGGAUUGAGCAUCA
AGGUUUCCGGUUCCGGUGUAACGUUCGGGCUCCGUCUCAGGGGCUGAAGUUUGUGAGGUGCCGUAUUGAGUCCUGUUUGAGCUAUUGUUCUCUUUUUCCUGAAAAAUGGCACUGUCAAAG: 0.144 ratio
GCGCUGGGGGUAAGGGUUACAAAUAAUGAAUUAAAUCAUAUUGGUCAUUAGGACAGAUGCCCGCUGGCUUUUCUAUUUUAACUGACAAGUCCAGAGCAUAUACAAGUGCAUGAAGUGAGA: 1.28 ratio
ACUGUGAAGGAAGAAAAAAGUUGGCAUUUCUUGGUCCUCCGUUCAUAACACAAAGCAGAGCCGUAUUUUUAUAUUUAAAUGUUAAAAACAAAAAAGUUAUAUAUAUAUGGAUGUGUGGAU: 0.491 ratio
GCCCGCCGUCCCGACCCCAGCCCCACCCAAGAUGUCAGAGGAUCUAGCAAAACAGUUGGCCCGCUACAAAGCUCAACUCCAGCAAGUAGAAGCUGCCCUUUCUGGAAAUGGAGAAAAUGA: 0.22 ratio
AGCACUGAUCUGGCUGUAUACUGAUCCAUCACUAACCUGUUUUCUAGGACCCAGCGUAUGCCGCAUUUGUAUUGCAGUUUCCCUGGCUUACUUGUGUUUUGCACUGAUGAAUUUUGACAG: 0.151 ratio
UCAGUUAAGUUGUCAGAAAACAUGAAGGCUUCAUCCUUUAAAAAACUACAGAAGUUUUAUACCGACCCAUAUAAGCUGCUGCCACUGCAGAGGUUUUUACCUCGACCUCCAGGUGAGAAA: 0.267 ratio
UUACUGCACGUCAGUUUUUAUAAGGCACUUCAAGUAGUUUUGUGGAAAGAGAUGAGGUUUCCGUCCGAAUACAAUUGCCUUUUAAUUCAUGUUUUAAGAAAUUAAUGUUAGAAGUAAAAG: 0.522 ratio
GUAAUGGACGUUAAUACUGCUUUACAAGAGGUUCUGAAGACUGCCCUCAUCCACGAUGGCCCCGCACGUGGAAUUCGCGAAGCUGCCAAAGCCUUAGACAAGCGCCAAGCCCAUCUUUGU: 0.194 ratio
AGGUCUGACCGAGUUAAGAGCGUGGAUUUGCAUCCCACAGAGCCAUGGAUGUUGGCCCGUCUUUACAAUGGCAGUGUGUGUGUUUGGAAUCAUGAAACUCAGACACUGGUGAAGACGUUU: 0.0931 ratio
CUCAGCCCAGGGCCCCAAAUCAACGUGCUGGAAGAUCCAGACUACCUAGAUCUCACACAAACCGAAGCAAGCAAACCUCACAGUACCCAAUUUUUGCCACCAGUUGAGAUGAUUGGUCCU: 0.2 ratio
UUCGGGAAAAUAACCAGUUAAACCAGCUACUCAAGGCUGCUCACCAUACGGCUCUAACAGAUCCGGGGCUAAAACGAUUACUGACUUUCCUUGAGUAGUUUUUAUCUGAAAUCAAUUAAA: 0.444 ratio

Study 3 — technique: RNA Bind-n-Seq; molecule type: RNA; matrix: in vitro; tested at: 200 nM; setting: whole 134-nt RNA, ends assumed; with: 150 mM LiCl; relative to: input library; reading: higher = stronger binding; measurement: log2 enrichment; library: 7-deaza-guanosine replaces G
Target: Fragile X messenger ribonucleoprotein 1, C-terminal low-complexity region (Fmr1, Mus musculus, UniProt P35922)
Shared flanks, not repeated: GGGAGUUCUACAGUCCGACGAUC … UGGAAUUCUCGGGUGUCAAGG
AGUCCUGUGCUACACAUCGUAUGUACCGAAUCGGGUUUUUGGGAAAAAAAGGGUGGGAAAGUAUUAUGUUACGCCGUUCGGAUCUGCACU: -2.56
UUCGACGGCGCCGGGCGAGUGGCUGUUGAGCGGCGCCGCGGGAGUUCCGCAGGUUUCCCGUGUUCGCAGCGGAGCCGGAGGCCAGCUGAA: -3.68
ACCAUGCAGGUGGGCAUCUUUGGGAAGUGGGGCAAGGGGGGGAUAGGGAGGGGGGUAACACUUUGGGAACAGGUGGUCCCAGGUCCUUUC: 0.471
CCUCAAGUCCUGUGCUACACAUCGUAUGUACCGAAUCGGGAGGGUGGGUGGGAAAGUAUUAUGUUACGCCGUUCGGAUCUGCACUUCCAG: -0.335
CCUCAAGUCCUGUGCUACACAUCGUAUGUACCGAAUCGGGGUGGGUGGGGUGGAAAGUAUUAUGUUACGCCGUUCGGAUCUGCACUUCCA: -1.26
UCCUGUGCUACACAUCGUAUGUACCGAAUCGGGUUUUUUUGGGAAAAAAAGGGAAAGGGAAAGUAUUAUGUUACGCCGUUCGGAUCUGCA: -1.78
CCUGUGCUACACAUCGUAUGUACCGAAUCGGGGUUUUUUGGGUUUUUUGGGGUUUUUUGGGAAAGUAUUAUGUUACGCCGUUCGGAUCUG: -0.356
UCAAGUCCUGUGCUACACAUCGUAUGUACCGAAUCGGAAAAAAAGGAAAGGAGGAAAGUAUUAUGUUACGCCGUUCGGAUCUGCACUUCC: -1.12
AGUCCUGUGCUACACAUCGUAUGUACCGAAUCGGAAAAAAAGGUUUUUGGAAAAAGGAAAGUAUUAUGUUACGCCGUUCGGAUCUGCACU: -3.04
GUCCUGUGCUACACAUCGUAUGUACCGAAUCGGCCCCCCGGGGCCCCCCGGCCCCCCGGAAAGUAUUAUGUUACGCCGUUCGGAUCUGCA: -1.67
UCAAGUCCUGUGCUACACAUCGUAUGUACCGAAUCGGGUUUGGGUUUGGGAGGGAAAGUAUUAUGUUACGCCGUUCGGAUCUGCACUUCC: -0.653

Study 4 — technique: RNA Bind-n-Seq; molecule type: RNA; matrix: in vitro; tested at: 365 nM; relative to: no-protein control; reading: higher = stronger binding; measurement: RBNS enrichment (R)
Target: RNA binding protein fox-1 homolog 2, RRM domain, GST-SBP tag (RBFOX2, Homo sapiens, UniProt O43251-10, residues 100-194)
Setting: natural RNA segment, single round, ends assumed
Shared flanks, not repeated: GGGAGUUCUACAGUCCGACGAUC … UGGAAUUCUCGGGUGCCAA
Residues (chain): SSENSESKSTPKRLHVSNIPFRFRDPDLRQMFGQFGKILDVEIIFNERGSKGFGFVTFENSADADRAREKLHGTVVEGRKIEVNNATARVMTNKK
AUAAAUAAAAGUAAAUACUAUAAUACAAAGUUCCUUCUGAAAUAAAAGUAGAUCUGGUAAAAAUGUGCGUGCGUUUCGUUCUGAAUGUUCAAUGCUAAUUUUGUUUUAUU: 0.573
AAUCCAUGUCUAUAAUCUACCAACAAAGAUGUACUCUUAAACUCAGUAUCACCAGGCACUAUAUUUCAUCUUUGAGGCUUUUGUUAUACCAAGGAAUACUAUAUAAAGUA: 0.343
AGGGUAAGAAGAACAUGUAGAAUCCAGAUUCCCUGAGUGUGAGGGACCCAUGGUGCAUUUGUAAUAAUAAAACCAAAGAAACAAACACCUGUGUGCUAGCUGCGUGCUGG: 0.727
AGAGGCUUGUUUUGUCUUUUGGUUUUUAUGAGGUGGGAUAUCCCUAUGCUGCCUAGGCUGACCUUGAACUCCUGGGCUCAAGCAGUCUACCCACCUCAGCCUCCUGUGUA: 0.293
UAGUGUUACACUGGUUCUGGAGUGUCUCUGCGGUACAAAGAUGCACUUUUCUUCAUGGGGCAAAGUCUGCCUCUUCUGCCAGGCAGUUCCCAUUUGCCCCUGUCCAGACU: 0.221
AAAAAGUAACAAGCUGUUCCUUGUUUCUGAUACAUAAAAUUAUUUUAAGCAUUUUAUCAAUCAUUAAAAUUUACUGCCAGUUGUGAGUGGCUUUUUAAUUAACUUGUCUU: 0.486
UGUUGGAUACUUAUAAUCAAAACUUUUACUAGGGUAUUGAAUAAAUCUAGUCUUACUAGAAAAUAAAGGAGCUGUUUUGUGGCUUUGUUUGACAGGUCUUCAGUAAGAAU: 0.642
CUUCUGCUGCCUGACCUCUGCAUGGUGUCUUGACCUGGGCCUCAUGUGUAGCUGCACUGCCUUUGUCCACUAAGACCUCUAGUUUUUGGUGUAAAAGGGUCCCUGGUUUC: 1.72
GCCUGAUUAGUCACAUAUCAUUGGAGGUCAAACGCCAUUUCCAGUGGCCUCUCUGUGUGCCCACAUGAUGCAAAGGGGUCAUGUACUAUGCCCUGGACAAAGAAGUAUGU: 0.469
GACCCCAGCUGUUGUCUGCCCAGUAGAAGUGGGUGGGGGUAGGAGGGGAUAGGGUGUCCUUGGGAACAAUGGAUCCCAGCUUAGCCCCAAAGACCAACCAAAGAGCCAGC: 0.597
GCUCUGUGAGAAGGCGUGCCAGCCAUUAGGAAGCCCCACCGCCAAAGGAGGUGCACCCAGGAGGGUCCUCAGAAUCAUGGACUUCUACCCCAUUGCUGGUAGACAAUUUU: 0.391
GUGGAGCAGGGUGGGGCGGGGCUACAGGUUCUGUGUGCACCUGUCACCUCCACUAACGCUGUCUCAGUGUUUUCUCUCUCUCUCUCGAGCUCGUAGUCCAGCGCCUGACU: 0.466

Some of these lines once more (study 1):
ATGCCGCG: 0.428
CATCCTCA: -0.0261
CGAGCCCG: 0.332
ATGTATAA: -0.145
GCGATAAC: 0.0677
CACCGATG: -0.0895
